Results from different studies.
Each line is one published result; not all experiments were run side by side. Several values in a cell are separate wells, animals, samples, runs or records. ± marks the error that the study gave.

CC(C)[C@@H](CS(=O)(=O)C(C)C)N1C(=O)[C@@](C)(CC(=O)O)C[C@H](c2cccc(Cl)c2)[C@H]1c1ccc(Cl)cc1
spinal cord distribution advantage (FVB mouse, Abcb1a/b and Abcg2 knockout, spinal cord, plasma; oral, 20 mg/kg, unit not given; baseline: knockout Kp over wild-type Kp): 17.3

O=C(Nc1nc2cccc(-c3ccc(CN4CCS(=O)(=O)CC4)cc3)n2n1)C1CC1
treatment-emergent adverse events (refers to: blood calcium increased; rheumatoid arthritis patients; oral, 200 mg once daily, 4 weeks, any relatedness): 0%

Oc1ccc(/C=C/c2cc(O)cc(O)c2)cc1
blood urea nitrogen (rat, azoxymethane-injected, blood at sacrifice; 100 mg/kg): 22.3 mg/dL and 21.2 mg/dL and 15.8 mg/dL

CCCCC1=NC2(CCCC2)C(=O)N1Cc1ccc(-c2ccccc2S(=O)(=O)Nc2noc(C)c2C)c(COCC)c1
Tmax (healthy adult volunteers, plasma; oral, 50 mg, single dose, fasted, crushed tablet): 3.28 h

C/C=C/C(=O)Nc1ccc(-n2nc3c(=O)[nH]nc(N)c3c2-c2oc3ccc(C)cc3c2C)cc1
remaining compound (BALB/c nude mouse, whole blood; 1 µM, 0.5 h, 37 °C): 99.2%

COc1cccc(OC)c1-c1cc(C(=O)NC2(C(=O)O)C3CC4CC(C3)CC2C4)nn1-c1ccc(C(=O)N(C)CCCN(C)CCCN(C)C(=O)CN2CCN(CC(=O)[O-])CCN(CC(=O)[O-])CCN(CC(=O)[O-])CC2)cc1C(C)C.[177Lu+3] (centres unmarked)
tumour-to-heart ratio (mouse, HT-29 xenograft; 24 h post injection, biodistribution; baseline: tumour over heart uptake): 105

Cc1noc(C)c1-c1cc(C(O)(c2ccccn2)c2ccccn2)c2nc(C3CC3)[nH]c2c1
Ctau (human patients, fasted, plasma; oral, 9 mg once daily, cycle 1 day 8): 157 ng/mL

OC[C@H]1O[C@@H](c2ccc(Cl)c(Cc3ccc(O[C@H]4CCOC4)cc3)c2)[C@H](O)[C@@H](O)[C@@H]1O
Vss/F (healthy humans, plasma; oral, 25 mg, alone): 91.5 ± 18.8 L

N#Cc1ccc2c(c1)[C@H]1CCCN(C(=O)c3ccc4[nH]cnc4c3)[C@H]1C2
total testosterone level (human males; 240 mg, end of trial): 12.3 nmol/L

CN(C)C(=N)N=C(N)N
subjects with adverse event (refers to: diarrhoea; healthy men; oral, dose not given, 8 days, treatment-emergent, crossover trial): 4.5%

CNC(=O)c1cc(Oc2ccc(NC(=O)Nc3cc(C(C)(C)C)nn3-c3ccc4ncccc4c3)c(F)c2)ccn1
patients with any AE of special interest (refers to: worst grade 1; human; oral, dose not given, cycles 1 and 2, Medium AUC(0-4 h) subgroup): 43%

COc1cc([C@H]2OC[C@H]3[C@@H]2CO[C@@H]3c2ccc(O[C@@H]3O[C@H](CO)[C@@H](O)[C@H](O)[C@H]3O)c(OC)c2)ccc1O[C@@H]1O[C@H](CO)[C@@H](O)[C@H](O)[C@H]1O
accuracy (post-procedure stability; rat plasma; 200 ng/mL, 3 h, room temperature): 117%

Cc1c(-c2ccc(N3CCc4cccc(C(=O)Nc5nc6ccccc6s5)c4C3)nc2C(=O)O)cnn1CC12CC3(C)CC(C)(C1)CC(OCCNCC[C@H](O)CO)(C3)C2
systemic vascular resistance change (anaesthetised male beagle dogs; intravenous infusion, 0.3 mg/kg/min, 30 min; baseline: vehicle): 2%

Cn1cc(Nc2nccc(-c3ccc4c(c3)CN(C3COC3)CC[C@H]4NC(=O)c3cn(C(C)(C)C)nn3)n2)cn1
granulocyte count change (human, whole blood; 300 mg twice daily, day 14; baseline: pre-dose baseline): -4.01%

CCOc1c([C@H](C)n2nc(C)c3c(N)ncnc32)cc(Cl)c(F)c1[C@@H]1CNC(=O)C1
Cmax geometric mean (patients, monotherapy; oral, 45 mg once daily, cycle 1 day 1): 3850 nM

O=C(O)CCC(=O)O.[2H]C([2H])([2H])Oc1cc(C)c2[nH]ccc2c1CN1CC[C@@H](C2CC2)C[C@H]1c1ccc(C(=O)O)cc1
Vss/F (human, plasma; 200 mg once daily, day 10, multiple ascending dose): 102 L

Cc1cc(C)c(CNC(=O)c2cc(Cl)c3c(c2C)O[C@@](C)([C@H]2CC[C@H](N(C)C)CC2)O3)c(=O)[nH]1
patients with grade ≥3 TEAE (refers to: Thrombocytopenia; human patients; oral, 200 mg once daily, 1 day onset day 14): 4.2%

C=CC(=O)NC1CCN(c2ncc3ncnc(Nc4ccc(Oc5ccc6c(c5)ncn6C)c(C)c4)c3n2)CC1
adverse events incidence (refers to: dry mouth; human male; oral, dose not given, AEs, treatment-related, on drug, CTCAE): 0%

CNCCOC12CC3(C)CC(C)(CC(Cn4ncc(-c5ccc(N6CCc7cccc(C(=O)Nc8nc9ccccc9s8)c7C6)nc5C(=O)O)c4C)(C3)C1)C2
cardiac output change (anaesthetised male beagle dogs; intravenous bolus, 0.03 mg/kg, 135 min; baseline: baseline): -67%

COc1cc(Nc2ncc3c(n2)-c2ccc(Cl)cc2C(c2c(F)cccc2OC)=NC3)ccc1C(=O)O
patients with adverse event (refers to: Hypophosphatemia, grade 1; cancer patients, phase 1/2; oral, dose not given, with: pembrolizumab): 17%

COc1cc2c3c(n(CCCN4CCOCC4)c(=O)c2cc1OC)-c1cc2c(cc1C3=O)OCO2
t1/2 (beagle dog, female, plasma; intravenous infusion, 50 mg/m^2, 1 h infusion, vehicle 1): 5.9 ± 2.3 h

COc1cc2nccc(Oc3ccc(NC(=O)c4cc5c(n(-c6ccccc6)c4=O)CCCC5=O)nc3)c2cc1OC
grade ≥3 Leucocytosis patients (relapsed or refractory AML; oral, 6 mg once daily): 33.3%

CC(F)(F)c1nc2nc(CO)cc(Nc3ccc(S(F)(F)(F)(F)F)cc3)n2n1
AUC(0-inf), metabolite (LC-MS/MS; malaria patients, plasma; oral, 250 mg of parent drug): 254 µg·h/mL

C/C(O)=C(\C#N)C(=O)Nc1ccc(C(F)(F)F)cc1
free plasma concentration (CD-1 mice female, plasma; oral, 30 mg/kg leflunomide daily, 8 h): 314000 ± 111000 nM

CO[C@H]1C[C@@H]2CC[C@@H](C)[C@@](O)(O2)C(=O)C(=O)N2CCCC[C@H]2C(=O)O[C@H]([C@H](C)C[C@@H]2CC[C@@H](O)[C@H](OC)C2)CC(=O)[C@H](C)/C=C(\C)[C@@H](O)[C@@H](OC)C(=O)[C@H](C)C[C@H](C)/C=C/C=C/C=C/1C
heart rate (healthy adult horses; oral, 0.06 mg/kg, 2 h): 34.5 ± 2.8 beats/min

CC(=O)O[C@H]1C(=O)[C@@]2(C)[C@H]([C@H](OC(=O)c3ccccc3)[C@]3(O)C[C@H](OC(=O)[C@H](O)[C@@H](NC(=O)c4ccccc4)c4ccccc4)C(C)=C1C3(C)C)[C@]1(OC(C)=O)CO[C@@H]1C[C@@H]2O
adverse event incidence (refers to: Rash; patients with advanced solid tumours; intravenous, dose not given, grade 3 and 4, possibly related to drug): 4%

O=C1NCCc2nc(OCc3cccc(F)c3)ccc21
Irwin test score (refers to: Miosis; Sprague-Dawley rat male; oral, 100 mg/kg, 4 h; direction not given): 0

C[C@@H](Oc1ccc(S(C)(=O)=O)cc1C(=O)N1C[C@@H]2C[C@]2(c2cc(C(F)(F)F)on2)C1)C(F)(F)F
renal clearance at steady state (young healthy humans, plasma and urine; oral, 10 mg, 0 to 24 h, multiple dosing once daily): 5.94 mL/min

Cc1ccc(C(=O)N(CCCN)C(c2nc3snc(C)c3c(=O)n2Cc2ccccc2)C(C)C)cc1 (centres unmarked)
patients with adverse event (pneumonia grade ≥3 (CTCAE); human patients; intravenous, 10 mg/day): 0%

Cc1ccc([C@@H]2O[C@H](CO)[C@@H](O)[C@H](O)[C@H]2O)cc1Cc1ccc(-c2ccc(F)cc2)s1
urinary sodium excretion change (Japanese type 2 diabetes patients; 25 mg, day 15, 24 h urine collection; baseline: baseline): 51.8 mEq

CCc1cc(C(=O)NC)c2nccc(N3CCc4c(cc(Cn5ccnc5)cc4-c4cn(C)nc4C(F)(F)F)C3=O)c2c1
gastrocnemius weight (Sprague Dawley rats; oral, 100 mg/kg twice daily, 7 days): 2.77 ± 0.154 g

Cc1cc(-c2nccc3c2ccn3CC(=O)Nc2ccc(-c3cnccn3)cn2)ccn1
subjects with Costochondritis adverse event (human; 15 mg once daily, multiple ascending dose): 11.1%

Cc1nc2cccc(OCC(C)(C)C(=O)NC(C)C)c2c(N)c1C(=O)O
PCE/NCE ratio (male Swiss albino CD-1 mouse, bone marrow; oral, 500 mg/kg, 36 h): 0.83

C[Si](C)(C)O[Si](C)(C)O[Si](C)(C)C
whole-body biotransformation rate constant (IVIVE from S9; rainbow trout (Oncorhynchus mykiss)): 0.077 day⁻¹ and 0.064 day⁻¹ and 0.086 day⁻¹

NC1(C(=O)N[C@@H](CCO)c2ccc(Cl)cc2)CCN(c2nc[nH]c3nccc2-3)CC1
incidence of Leukopenia (metastatic CRPC patients; dose not given, grade 3 to 4, treatment-related, all doses, with: enzalutamide 160 mg daily): 0%

c1ccc2c(c1)c1cccc3ccc4cccc2c4c31
literature range factor (polyethylene-water partitioning; PAH compilation; baseline: maximum over minimum K): 10

COc1ccc2[nH]c([S+]([O-])Cc3ncc(C)c(OC)c3C)nc2c1 (centres unmarked)
t1/2 (healthy Chinese volunteers, CYP2C19 intermediate metabolizers; oral, 20 mg, enteric-coated capsules): 1.17 ± 0.68 h

CCn1c(=O)c(-c2cc(NC(=O)Nc3ccccc3)c(F)cc2Br)cc2cnc(NC)cc21
participants with drug-related TEAE (refers to: gastrointestinal disorders; healthy human, matched to severe hepatic impairment; oral, 50 mg single dose): 0%

Cc1cc(NC2CCN(C(=O)OC3CCN(C(=O)/C=C/CN(C)C)C3)CC2)n2ncc(C(C)C)c2n1 (centres unmarked)
patients with Hyponatremia (patients with advanced solid tumours; dose not given, QD arm, grade 3 or higher): 0%

NCCONC(=O)[C@@H]1CC[C@@H]2CN1C(=O)N2OS(=O)(=O)O
amount excreted in urine (0-8 h) (human male, urine; intravenous infusion, 1 g single dose): 782 mg

FC(F)(F)c1ccc(CNc2ccc(Cc3c[nH]c4ncc(Cl)cc34)cn2)cn1
cognitive disorder incidence (patients with advanced solid tumours; oral, 1000 mg/day, non-TGCT cohort, grade ≥3): 0%

CCn1cc(C(=O)N2CCOCC2)c(=O)c2cc(NC3Cc4ccccc4C3)cnc21
AUC(0-last) (human, fasted; oral suspension, 1200 mg single dose, arithmetic mean): 6.13 µg·h/mL

CCOC(=O)c1c(NC(=O)CNC(C)C)sc2c1CCCCC2
brain AUC(0-1 h) (mouse, brain; intraperitoneal, 5 mg/kg): 227 ng·h/g

Cc1cc([C@H]2C[C@H]3[C@@H](CF)SC(N)=N[C@@]3(c3ccc(F)cc3F)CO2)on1
plasma concentration (male 129/SVE wild-type mouse, plasma; subcutaneous, 100 mg/kg, 9 h): 41 nM

[18F]c1ccc(-c2ccc3c(c2)[nH]c2ccncc23)cn1
SUV (microPET/CT imaging; B6SJL mouse, normal, brain; intravenous, 10 min): 1 ± 0.158

COc1ccc2c(c1)CN(C(=O)CCN1CCC(Cc3ccccc3)CC1)CC[S@@+]2[O-]
unbound plasma concentration (anaesthetised beagle dog, male, plasma; intravenous, 2 mg/kg over 30 min, end of infusion): 470 ± 180 nM

CN1CC(=O)N2[C@H](c3ccc4c(c3)OCO4)c3[nH]c4ccccc4c3C[C@@H]2C1=O
accuracy (human plasma; 400 ng/mL, freeze-thaw at -70 °C): 99.4%

CCC(=O)N(CCC(c1ccc2c(c1)OCO2)c1ccccc1OC)Cc1ccccc1 (centres unmarked)
BASO (female athymic nude mouse, blood; i.p., 60 mg/kg twice daily, 14 days, group mean): 0.175%

CC(C)[C@H](C(=O)Nc1ccc(C(=O)NO)cc1)c1ccccc1
accuracy (whole blood; 1000 ng/mL, 5 h, 4 °C, stability on ice): 105%

OCC1=C[C@@H](O)[C@@H]2C=CO[C@@H](O[C@@H]3O[C@H](CO)[C@@H](O)[C@H](O)[C@H]3O)[C@H]12
accuracy (three freeze-thaw cycles; rat plasma; 8 ng/mL, -70 °C freeze): 88.2%

CNC(=O)c1ccc(-c2cnc3ncc(Cc4ccc5ncccc5c4)n3n2)cc1F
abdominal pain incidence (cancer patients; oral, 600 mg twice daily, all grades RP2D expansion): 16%

O=C([O-])CN1CCN(CC(=O)[O-])CCN([C@H](CO)[C@H](O)CO)CCN(CC(=O)[O-])CC1.[Gd+3] (racemic)
Gd release (LC-ICP-MS; human plasma; pH 7.4, 37 °C; baseline: total Gd per day): 0.008%

CO[C@@H]1[C@H](O)[C@@H](CO)O[C@H]1n1c([N+](=O)[O-])nc2c(=O)[nH]c(N)nc21
nucleoside remaining fraction (depurination, RP-HPLC; citrate-phosphate buffer 0.5 mM; 1380 min, pH 5, 37 °C): 0.519

CCN1/C(=C/C(C)=O)Sc2ccc(F)cc21
heart rate change (cynomolgus monkey; oral, 100 mg/kg, 4 h post-dose; baseline: pre-dose): 103 ± 26.7%

CO[C@H]1/C=C/O[C@@]2(C)Oc3c(C)c(O)c4c(c3C2=O)C2=NC3(CCN(CC(C)C)CC3)NC2=C(NC(=O)/C(C)=C\C=C\[C@H](C)[C@H](O)[C@@H](C)[C@@H](O)[C@@H](C)[C@H](OC(C)=O)[C@@H]1C)C4=O
fAUC/MIC ratio (CD-1 mouse, plasma; oral, dose not given, efficacy dose): 0.474

O=C(Nc1cnccc1Cl)N1CCN(Cc2ccc3c(c2)OC(F)(F)O3)CC1
abdominal pain incidence (multiple ascending dose; young men; 10 mg, treatment-emergent adverse events): 0%
